Published values pooled from the literature.
Each line is one published result; not all experiments were run side by side. Values joined by “and” are separate records of one study, mostly repeats; a detail may differ.
PIK3CA I800L: Phosphatidylinositol 4,5-bisphosphate 3-kinase catalytic subunit alpha isoform (PIK3CA, Homo sapiens, UniProt P42336, I800L)
PIK3CA: Phosphatidylinositol 4,5-bisphosphate 3-kinase catalytic subunit alpha isoform (PIK3CA, Homo sapiens, UniProt P42336)
PIK3CA with p85 alpha: Phosphatidylinositol 4,5-bisphosphate 3-kinase catalytic subunit alpha isoform, with p85 alpha (PIK3CA, Homo sapiens, UniProt P42336)

target = Phosphatidylinositol 4,5-bisphosphate 3-kinase catalytic subunit alpha isoform, with p85 (PIK3CA, Homo sapiens, UniProt P42336, H1047R); assay = enzyme activity, inhibitor; conditions = 1 µM; measurement = inhibition; result = 53%; Structure (SMILES) = Cc1nc2c(F)cc(-c3nc(Nc4ccc(CNC(=O)CCCCCCC(=O)NO)cc4)ncc3F)cc2n1C(C)C
target = PIK3CA I800L; assay = binding, competition with immobilised ligand; conditions = 10 µM; measurement = remaining binding; result = 51%; Structure (SMILES) = CC(=O)c1cnc(N)nc1N1CC[C@H]1c1nn2ccc(Cl)c2c(=O)n1-c1ccccc1
target = PIK3CA; assay = binding; conditions = 0.1 µM; measurement = remaining binding; result = 96%; Structure (SMILES) = Cc1cnc2nc1Nc1cccc(c1)COC/C=C/COCc1cc(ccc1OCCN1CCOCC1)N2
target = Phosphatidylinositol 4,5-bisphosphate 3-kinase catalytic subunit alpha isoform (PIK3CA, Homo sapiens, UniProt P42336, E545A); assay = binding, competition with immobilised ligand; conditions = 1 µM; measurement = remaining binding; result = 100%; Structure (SMILES) = Nc1ncc2c(n1)-c1c([nH]c3ccc(C4=CCOCC4)cc13)CCC2
target = PIK3CA; assay = KINOMEscan; conditions = 1 µM; how to read = relative to: DMSO control; measurement = remaining binding; result = 95%; Structure (SMILES) = C=CC(=O)N1CCc2ccc(-n3c(=O)ccc4cnc5ccc(-c6cnn(C)c6)cc5c43)cc21
target = PIK3CA; assay = inhibitor, KiNativ profiling; system = biochemical; conditions = 2 µM; measurement = inhibition; result = -41.8%; Structure (SMILES) = C=CC(=O)Nc1cc(-c2nn(C3CCN(CCNC(=O)[C@H](C)CCC45CC6CC(CC(C6)C4)C5)CC3)c3ncnc(N)c23)ccc1Oc1ccccc1
target = Phosphatidylinositol 4,5-bisphosphate 3-kinase catalytic subunit alpha isoform, with p85 (PIK3CA, Homo sapiens, UniProt P42336, E545K); assay = enzyme activity, inhibitor; conditions = 1 µM; measurement = remaining activity; result = 102%; Structure (SMILES) = O=c1c(-c2ccc(Cl)c(CN3CCOCC3)c2)coc2cc(O)ccc12
target = PIK3CA with p85 alpha; assay = enzyme activity, KinaseProfiler panel; conditions = 1 µM; measurement = remaining activity; result = 101%; Structure (SMILES) = CNC(=O)C[C@H](Cc1ccc(C#N)cc1)NC(=O)c1cc(-c2ccc(CN[C@H](C)c3ccc(C)cc3)o2)ccc1Cl
target = Phosphatidylinositol 4,5-bisphosphate 3-kinase catalytic subunit alpha isoform (PIK3CA, Homo sapiens, UniProt P42336, M1043I); assay = inhibitor; conditions = 1 µM; how to read = relative to: control; measurement = remaining activity; result = 100%; Structure (SMILES) = COc1cc(Nc2nc(C)cc(-c3cnn4nc(OC)ccc34)n2)cc(C(F)(F)F)c1
target = PIK3CA with p85 alpha; assay = kinome panel; conditions = 1 µM; measurement = inhibition; result = -17.9%; Structure (SMILES) = C=CC(=O)N1Cc2nc(-c3cc(-c4cc(Cl)cnc4Cl)c(F)cc3F)n(-c3ccncn3)c2C1
target = PIK3CA; assay = kinase activity; conditions = 0.1 µM; measurement = inhibition; result = 28% and 26%; Structure (SMILES) = C=CC(=O)Nc1cccc(-c2cnc3[nH]cc(C(=O)NC(C)(C)C)c3n2)c1
target = PIK3CA I800L; assay = binding; conditions = 1 µM; measurement = remaining binding; result = 100%; Structure (SMILES) = COc1cc(Nc2nccc(-c3cnn4nc(OC)ccc34)n2)cc(C(F)(F)F)c1
target = PIK3CA with p85 alpha; assay = inhibitor, KinaseProfiler panel; conditions = 1 µM; measurement = inhibition; result = -1%; Structure (SMILES) = CN1CC[C@@H](COc2cnc(C#N)cc2-c2ccn3nc(NC(=O)C4CC4)cc3c2)C1

Some of these lines once more:
target = PIK3CA; assay = binding; conditions = 0.1 µM; measurement = remaining binding; result = 96%; Structure (SMILES) = Cc1cnc2nc1Nc1cccc(c1)COC/C=C/COCc1cc(ccc1OCCN1CCOCC1)N2
target = Phosphatidylinositol 4,5-bisphosphate 3-kinase catalytic subunit alpha isoform (PIK3CA, Homo sapiens, UniProt P42336, E545A); assay = binding, competition with immobilised ligand; conditions = 1 µM; measurement = remaining binding; result = 100%; Structure (SMILES) = Nc1ncc2c(n1)-c1c([nH]c3ccc(C4=CCOCC4)cc13)CCC2
